# Measurements from different studies.
# Parts stem from different laboratories: compare values within a part only.

# Block 1 — technique: RNA Bind-n-Seq; molecule type: RNA; matrix: in vitro; tested at: not given; setting: RNA with constant flanks, ends assumed; reference: input RNA pool; direction: higher = stronger binding
# Target: RING finger protein unkempt homolog, zinc fingers 1-6, GST-SBP tag (UNK, Homo sapiens, UniProt Q9C0B0, residues 30-357)
# Chain of UniProt Q9C0B0 (30-357, looked up): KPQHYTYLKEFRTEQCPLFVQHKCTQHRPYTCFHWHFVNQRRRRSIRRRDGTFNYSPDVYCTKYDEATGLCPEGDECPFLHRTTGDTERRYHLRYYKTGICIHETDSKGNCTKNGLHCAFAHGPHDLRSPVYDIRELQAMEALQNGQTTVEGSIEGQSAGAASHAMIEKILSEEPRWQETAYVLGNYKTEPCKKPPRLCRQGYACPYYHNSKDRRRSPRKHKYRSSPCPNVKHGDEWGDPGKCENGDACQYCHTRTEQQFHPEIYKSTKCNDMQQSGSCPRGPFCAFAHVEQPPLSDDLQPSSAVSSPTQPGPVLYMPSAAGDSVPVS
# Shared flanks, not repeated: GGGAGUUCUACAGUCCGACGAUC … CAACAGAGGAUUGAGCAUCA
Strand,bound/input enrichment [ratio]
UCUGCAAUAGUUGGGUUUAUCUACGGGUACGUGGCUGAACAGUUUGGGUGGACUGUCUACACCGUUAUGGCCGGAUUUGCUUUCUCCUGUUUGCUGACACUUCCUCCAUGGCCUAUCUAC,0.199
ACUUUUCCAUGCAGAUUUGUGCACAUGUGAGAGGGUGUCCAGUUUGUCUAGUGAUUGUUAUUCCGAGAGUUGGACCACUAUUGUGUGUUGCUAAUCAUUGACUGUAGUCCCAAAAAAGCC,0.172
GAAUUCCUAACUUGGUGUCAGUUUCUAAGGCCUUUAGUGUCUUGGAUAUUCUACUGUGUGUUCCGAACUGUUAAGUGUCACCUUAUUCUGGGAUUAUUGUCCUAGAAAUAUUCUGUUCUU,0.0953
GCCCAGGCAGCGGCGGCGGCGGCGGCGGUUCCUCUCGGGUUACGGUGAAGAAUGUCAGCCACCCGCGUGGAUCAGAGACCUAAAGGGCAAGGAAAUAAAGUUUCAGUACAAAAUGGUUCG,0.22
GCUUCCAAGAAGGUUUUGGAUACUAGAAGUAUUAAUCUAUGGCUUUUCUCCCAGUAAAACCACCGGCCUGAAGUUCACAUUGGGUCUUUAAAUCUUUUAGAUAUAUACUGGUCAUUUCAG,1.12
GUUAUUUUAAUAAUCCCUUUAAAUUUUAUCUGUUGCUGUUACCUCUUGAAAUAUGAUUUAUUCCGAUUGCUAAUCCCACUCAUUCAGGAAAUGCCAAGAGGUAUUCCUUGGGGAAAUGGU,1.37
GACACAAAAAACAAGGAUGGCGUGCUGGUGGAUGAAUUUGGACUGCCGCAGAUUCCCGCUUCGCCGACUUACAACAUUCCAGCACGUGAUGUGAAACAACAAGAGAAGUAUUCUGGGACU,0.133
ACAGAUGGGAAACACGGACUUAAGUGUAUGUUUCAUAUACUGACAGUGGGACAUGGUUCUACCGAUCAAUUAUAAUAAUAAAUAUUUUAAUUUAUCAUAAUUUAUAAAAGCUUUGUUGUU,3.26
GUCAGCUGGGGUACAAAGGCCCAGCCUAUAGACUCCAUAUUAGCAGACUGGAAUGAAGACACCGAAGCAUUUGAAAUGAUGGAGAAGGAUGAACUAUGACUCUCUGGAAAGACUCUGGUG,0.739
AGCAAGAAGAAUAACAUAUUCGCCCAGUUCCGGAAGAAUGACCGAGACAGACAGAAGCUGACCGAGACAGUGGUGAGACAGCUCAGAGGCUUGGUGACUGGUAUGUCCCAGCACACGUAG,0.168

# Block 2 — technique: universal PBM; molecule type: double-stranded DNA, one strand shown; matrix: in vitro; tested at: 600 nM; direction: higher = stronger binding
# Target: Sal-like protein 4, full length isoform A (SALL4, Homo sapiens, UniProt Q9UJQ4, residues 1-1053)
# Chain of UniProt Q9UJQ4 (whole entry, looked up): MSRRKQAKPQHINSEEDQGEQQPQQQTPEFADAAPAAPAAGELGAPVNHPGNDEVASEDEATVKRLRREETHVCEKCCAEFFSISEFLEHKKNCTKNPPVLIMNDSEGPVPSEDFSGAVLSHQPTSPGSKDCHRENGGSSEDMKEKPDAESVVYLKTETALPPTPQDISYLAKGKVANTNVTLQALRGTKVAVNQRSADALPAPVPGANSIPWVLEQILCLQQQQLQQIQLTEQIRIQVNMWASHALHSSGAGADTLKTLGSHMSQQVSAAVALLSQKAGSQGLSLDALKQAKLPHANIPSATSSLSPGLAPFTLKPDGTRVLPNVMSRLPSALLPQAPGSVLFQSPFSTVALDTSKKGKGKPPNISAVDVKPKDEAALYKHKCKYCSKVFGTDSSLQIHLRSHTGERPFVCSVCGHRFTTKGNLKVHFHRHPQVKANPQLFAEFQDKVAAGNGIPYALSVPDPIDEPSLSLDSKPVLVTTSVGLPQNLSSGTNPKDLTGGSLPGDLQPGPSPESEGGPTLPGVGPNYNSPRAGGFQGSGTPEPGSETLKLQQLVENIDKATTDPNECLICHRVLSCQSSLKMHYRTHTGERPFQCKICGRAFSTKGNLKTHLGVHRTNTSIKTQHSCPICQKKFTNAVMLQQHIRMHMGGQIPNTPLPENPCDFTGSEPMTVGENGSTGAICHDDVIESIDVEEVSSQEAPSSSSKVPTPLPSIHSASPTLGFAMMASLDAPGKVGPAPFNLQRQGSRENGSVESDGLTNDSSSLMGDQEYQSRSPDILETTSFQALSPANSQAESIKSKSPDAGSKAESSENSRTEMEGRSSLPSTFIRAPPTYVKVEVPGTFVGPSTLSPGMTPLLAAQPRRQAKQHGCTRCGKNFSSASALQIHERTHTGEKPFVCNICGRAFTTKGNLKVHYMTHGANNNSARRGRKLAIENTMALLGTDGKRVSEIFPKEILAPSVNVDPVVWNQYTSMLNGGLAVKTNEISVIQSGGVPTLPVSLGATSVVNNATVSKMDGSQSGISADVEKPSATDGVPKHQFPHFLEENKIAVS
# Setting: 8-mer, flanks averaged, mean of replicates
Strand,E-score
TGTGGAAA,0.255
CGTCCATA,0.0172
AAAATAGA,0.357
ACGGTAAC,-0.0073
AGGGGGTA,-0.153
ACTGTTCG,0.0687
AATCGTTC,0.0543
CATCTCAG,-0.0146
AGACAGGA,0.12
ACGACGTG,-0.0169
ATTAAACG,0.261
GATCTTGA,0.131
CGTGGCCA,-0.238
CCCCGTGC,-0.34
GCCACAGA,-0.234
ATGTCTCG,-0.0706
AAAATTTA,0.333
GCAGTAGA,-0.0651
CTTTGCAA,0.109
CTGTGTCA,-0.0722
GTTGACTA,0.0737
ATATTCCG,0.259

# Block 3 — technique: protein-binding microarray; molecule type: double-stranded DNA, one strand shown; matrix: in vitro; tested at: 250 nM; setting: 60-bp whole probe; together with: salmon DNA 0.4 mg/ml; reference: random background probes; direction: higher = stronger binding; shared flanks, not repeated: GCCTAGCAC … GTCTTGATTCGCTTGACGCTGCTG
# Target: Interferon regulatory factor 7, full length, phosphomimetic (IRF7, Homo sapiens, UniProt Q92985, residues 1-503, S101K/S471D/S472D/S475D/S476D/S477D/S483D/S484D/S487D)
# Construct (chain): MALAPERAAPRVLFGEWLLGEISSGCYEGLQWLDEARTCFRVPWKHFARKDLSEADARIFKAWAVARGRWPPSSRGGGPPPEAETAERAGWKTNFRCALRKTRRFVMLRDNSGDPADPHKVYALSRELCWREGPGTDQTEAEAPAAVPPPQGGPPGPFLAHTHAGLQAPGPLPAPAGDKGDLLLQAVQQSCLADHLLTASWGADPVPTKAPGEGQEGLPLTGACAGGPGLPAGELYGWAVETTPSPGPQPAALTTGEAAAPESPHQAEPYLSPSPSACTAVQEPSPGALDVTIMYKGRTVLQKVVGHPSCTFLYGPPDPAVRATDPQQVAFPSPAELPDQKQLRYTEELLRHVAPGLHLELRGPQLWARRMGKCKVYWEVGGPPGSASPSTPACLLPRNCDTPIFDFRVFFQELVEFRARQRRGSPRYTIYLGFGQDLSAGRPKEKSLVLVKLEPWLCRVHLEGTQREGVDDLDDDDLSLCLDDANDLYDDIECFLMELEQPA
Strand,log fluorescence [z-score]
GAAGGTATCGACTTTCGGGACGTGCTA,1.28
TCAGCATTCGAATTCAGACTGTGCTAG,-0.178
TTAGATTTCGGTTTCGATTAGTGCTAG,11.3
ATAGGTCTCCTTATCCTTTAGTGCTAG,0.551
GACGATATCGGGACTGGCGACGTGCTA,-0.354
TTAGGTTTCGACACTGGGTTAGTGCTA,3.4
GAGGGTTTCCTACTGCTGACGTGCTAG,0.697
GACGAAATGGGGTTTCGAGACGTGCTA,2.5
GACGGCATCGACACTGGGGACGTGCTA,-0.752
ACTGTGTTTTGGATGTCAGAGTGCTAG,0.0433
GACGATTTCGGTTTTCGAGACGTGCTA,4.57
GACGGTATCGACTTTCGGGAAGTGCTA,1.3
TTAGGACTTGGTTTCGGTTAGTGCTAG,9.41
GACGGACTGCTTATCCTTACGTGCTAG,-0.538
TTAGGAATGGGGACTGGGTTAGTGCTA,0.213
TTAAGTTTCGGGTTTCGGTTAGTGCTA,13
GACGGTATCCTTCACCTGACGTGCTAG,-0.42
GACGATTGCAGTTCCGAGACGTGCTAG,-0.248
TCAAAACTCGTGTTTTTCACTGTGCTA,0.566
TTAGGTATCGACTTTCGGTTGGTGCTA,2.91
GACGGTTTCGACACTGGGGATGTGCTA,3.55

# Block 4 — technique: RNA Bind-n-Seq; molecule type: RNA; matrix: in vitro; tested at: 20 nM; setting: 6-mer, flanks averaged, single round; together with: 150 mM KCl; reference: input library; direction: higher = stronger binding
# Target: TAR DNA-binding protein 43, full length, His tag (TARDBP, Homo sapiens, UniProt Q13148, residues 1-414)
Strand,6-mer enrichment (R)
CGUUUG,0.733
CUAGUA,0.63
GGAUGC,1.52
CCAGAC,0.699
UCCAGA,0.657
UAUCUU,0.575
AGGCGG,3.73
GGUUGU,1.28
CGUUAU,0.583
GAACAC,0.715
GUUUUG,0.872
CAGUAU,0.677
CAGAAG,0.95
UACCCU,0.621
GUUAAA,0.658
GCUAGC,0.87

# Block 5 — technique: RNA Bind-n-Seq; molecule type: RNA; matrix: in vitro; tested at: 200 nM; setting: whole 134-nt RNA, ends assumed; together with: 150 mM KCl; reference: input library; direction: higher = stronger binding
# Target: Fragile X messenger ribonucleoprotein 1, C-terminal low-complexity region (Fmr1, Mus musculus, UniProt P35922)
# Shared flanks, not repeated: GGGAGUUCUACAGUCCGACGAUC … UGGAAUUCUCGGGUGUCAAGG
Strand,log2 enrichment
UCCUGUGCUACACAUCGUAUGUACCGAAUCGGAAAAAAAGGAAAAAAAGGUUUUUUUGGAAAGUAUUAUGUUACGCCGUUCGGAUCUGCA,-0.536
UGUGCUACACAUCGUAUGUACCGAAUCGGGGCCCCCCCGGCCCCCCCGGGGCCCCCCCGGGGAAAGUAUUAUGUUACGCCGUUCGGAUCU,-1.54
CUGUGCUACACAUCGUAUGUACCGAAUCAAAUUUUUUUAAACCCCCCCAAAUUUUUUUAAAAAAGUAUUAUGUUACGCCGUUCGGAUCUG,-0.346
ACCAUGCAGGUGGGCAUCUUUGGGAAGUGGGGCAAGGGGGGGAUAGGGAGGGGGGUAACAGUUUGGGAACAGGUGGUCCCAGGUCGUUUC,0.696
AAGUCCUGUGCUACACAUCGUAUGUACCGAAUCGGUUUUGGGUUUUGGGUUUUGGGAAAGUAUUAUGUUACGCCGUUCGGAUCUGCACUU,-0.324
ACCAUGCAGGUGGGCAUCUUUGGGAAGUGGGGCAAGGGGGGGAUAGGGAGGGGGGUAACACUUUGGGAACAGGUGGUCCCAGGUCGUUUU,0.847
CCUGUGCUACACAUCGUAUGUACCGAAUCGGGGAAAAAGGGGAAAGGGGUUUUUUUGGGGAAAGUAUUAUGUUACGCCGUUCGGAUCUGC,0.279
GGUUUCUGGUGAGCUUCAUGGUUGACGCCCGGGGUGGUUCCAUGAGAGGAAGUCGCCACAACGGCCUGCGAGUGGUGAUCCCGCCACGGA,-2.02
CUGUGCUACACAUCGUAUGUACCGAAUCGGGGCCCCCCCGGGCCCCCCCGGCCCCCCCGGGGAAAGUAUUAUGUUACGCCGUUCGGAUCU,-1.15
UAACUUUAGAGGAGGAUCUGCUGGAUAUGGCAGUGGACGUGGAUUUGGGGAUGGCUAUAAUGGGUAUGGAGGAGGACCUGGAGGUGGCAA,0.309
AGGUCAUGGAUCAAAAAGAACAUAAAUUGAAUGGGAAGGUGAUUGAUCCUAAAAGGGCCAAAGCCAUGAAAACAAAAGAGCCGGUUAAAA,-1.11
CUGUGCUACACAUCGUAUGUACCGAAUCGGGGAAAAAAGGGAAAAAAGGGGAAAAAAGGGGAAAGUAUUAUGUUACGCCGUUCGGAUCUG,-0.289
UGGCCCUGGUGGCAUGCGGGGAGGAAGAGGUGGCCUCAUGGAUCGUGGUGGUCCCGGUGGAAUGUUCAGAGGUGGCCGUGGGGGAGACAG,0.2
UGGCCCUGGUGGCAUGCGGGGAGGAAGAGGUGGCCUCAUGGAUCGUGGUGGUCCCGGUCGAAUGUUCAGAGGUGGCCGUGGUGGAGACAG,-0.343

# Block 6 — technique: protein binding microarray; molecule type: double-stranded DNA, one strand shown; matrix: in vitro; tested at: not given; reference: not given; direction: higher = stronger binding
# Target: Histone acetyltransferase KAT6A, winged helix 1, GST fusion (KAT6A, Homo sapiens, UniProt Q92794, residues 1-85)
# Setting: 8-mer, flanks averaged, mean of 2 arrays, mostly near background
# Target sequence (chain): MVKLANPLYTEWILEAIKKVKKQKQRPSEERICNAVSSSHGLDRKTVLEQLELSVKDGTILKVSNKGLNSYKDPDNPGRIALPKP
Strand,E-score
GTACGTGA,-0.00844
AGCAAAAG,-0.137
CGACCTAA,0.0062
GACGTTAC,0.0455
ATTACTAA,-0.0475
GACTCAAC,-0.0245
AAGCTATA,-0.0643
ACGGGGAT,0.234
AGATGTGG,-0.282
AAAACCAC,-0.0544
AACACGTC,-0.00771
ACGCTGCT,-0.0139
AGACCCGA,0.0875
ATCGATCC,-0.011
GCATCGCC,0.246
GGACGGTA,0.257
CACCACAC,-0.0386
ACCCAATA,-0.0974
AACAATTC,-0.0905
GAGTAAGC,0.0244
ACTTGCAT,-0.178

# Some of these lines once more (block 5):
Strand,log2 enrichment
UCCUGUGCUACACAUCGUAUGUACCGAAUCGGAAAAAAAGGAAAAAAAGGUUUUUUUGGAAAGUAUUAUGUUACGCCGUUCGGAUCUGCA,-0.536
UGUGCUACACAUCGUAUGUACCGAAUCGGGGCCCCCCCGGCCCCCCCGGGGCCCCCCCGGGGAAAGUAUUAUGUUACGCCGUUCGGAUCU,-1.54
CUGUGCUACACAUCGUAUGUACCGAAUCAAAUUUUUUUAAACCCCCCCAAAUUUUUUUAAAAAAGUAUUAUGUUACGCCGUUCGGAUCUG,-0.346
ACCAUGCAGGUGGGCAUCUUUGGGAAGUGGGGCAAGGGGGGGAUAGGGAGGGGGGUAACAGUUUGGGAACAGGUGGUCCCAGGUCGUUUC,0.696
AAGUCCUGUGCUACACAUCGUAUGUACCGAAUCGGUUUUGGGUUUUGGGUUUUGGGAAAGUAUUAUGUUACGCCGUUCGGAUCUGCACUU,-0.324
ACCAUGCAGGUGGGCAUCUUUGGGAAGUGGGGCAAGGGGGGGAUAGGGAGGGGGGUAACACUUUGGGAACAGGUGGUCCCAGGUCGUUUU,0.847
CCUGUGCUACACAUCGUAUGUACCGAAUCGGGGAAAAAGGGGAAAGGGGUUUUUUUGGGGAAAGUAUUAUGUUACGCCGUUCGGAUCUGC,0.279
